Experimental data from different studies.
A part holds a random share of what one study measured. Changes are numbered by the printed parent chain.

Series 1
Target: Interferon regulatory factor 7, full length, phosphomimetic (IRF7, Homo sapiens, UniProt Q92985, residues 1-503, S101K/S471D/S472D/S475D/S476D/S477D/S483D/S484D/S487D)
Technique: protein-binding microarray
Form: double-stranded DNA, one strand shown
Matrix: in vitro
Tested at: 250 nM
Notes: 60-bp whole probe
Together with: salmon DNA 0.4 mg/ml
Relative to: random background probes
Direction: higher = stronger binding
All sequences stand within: GCCTAGCAC … GTCTTGATTCGCTTGACGCTGCTG
Target sequence (chain): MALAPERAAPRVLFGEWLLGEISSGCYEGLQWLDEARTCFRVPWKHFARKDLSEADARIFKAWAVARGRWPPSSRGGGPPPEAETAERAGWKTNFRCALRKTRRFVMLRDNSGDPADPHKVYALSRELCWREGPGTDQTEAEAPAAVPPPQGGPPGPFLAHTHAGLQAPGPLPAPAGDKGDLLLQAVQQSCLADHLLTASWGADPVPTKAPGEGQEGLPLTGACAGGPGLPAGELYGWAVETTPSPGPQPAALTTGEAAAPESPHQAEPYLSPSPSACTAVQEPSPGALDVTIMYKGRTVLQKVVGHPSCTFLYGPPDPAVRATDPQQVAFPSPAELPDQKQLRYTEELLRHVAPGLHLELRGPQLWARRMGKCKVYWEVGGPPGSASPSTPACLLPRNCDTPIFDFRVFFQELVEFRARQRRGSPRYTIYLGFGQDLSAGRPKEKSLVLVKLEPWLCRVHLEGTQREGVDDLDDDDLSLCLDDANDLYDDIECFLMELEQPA
With `TTAGGTCTCGGTATCGGTTGGTGCTAG` the log fluorescence was 3.55 z-score.
`GACAGTATCGGTCTCGGGACGTGCTAG` has a log fluorescence of 0.857 z-score.
`GACGGTCTCGACACTGGGGACGTGCTA` has a log fluorescence of -0.089 z-score.
`CTCACTCTAATCTCACTCTGTGTGCTA` has a log fluorescence of 0.359 z-score.
`GTAGATTTCAGTATCGATTAGTGCTAG` has a log fluorescence of 0.815 z-score.
The log fluorescence of `GACGGTATCCGTCTCGGGACGTGCTAG` is reported as -0.102 z-score.
With `TCATGATTGGTTGAACAACTGTGCTAG` the log fluorescence was -0.378 z-score.
With `GACGGACTGGGGAATCGGGACGTGCTA` the log fluorescence was -0.322 z-score.
`GACGGTCTCCTTCTCCTGAGGTGCTAG` gave a log fluorescence of 0.0782 z-score.
`TCATGAGTCCCTATCTCACTGTGCTAG` has a log fluorescence of -0.169 z-score.
`TTCGGTTTCCTTTTCCTTTAGTGCTAG` gave a log fluorescence of 8.11 z-score.

Series 2
Target: Centromere-binding protein 1, full length, N-terminal tag (CBF1, Saccharomyces cerevisiae, UniProt P17106, residues 1-351)
Sequence of UniProt P17106 (whole entry, looked up): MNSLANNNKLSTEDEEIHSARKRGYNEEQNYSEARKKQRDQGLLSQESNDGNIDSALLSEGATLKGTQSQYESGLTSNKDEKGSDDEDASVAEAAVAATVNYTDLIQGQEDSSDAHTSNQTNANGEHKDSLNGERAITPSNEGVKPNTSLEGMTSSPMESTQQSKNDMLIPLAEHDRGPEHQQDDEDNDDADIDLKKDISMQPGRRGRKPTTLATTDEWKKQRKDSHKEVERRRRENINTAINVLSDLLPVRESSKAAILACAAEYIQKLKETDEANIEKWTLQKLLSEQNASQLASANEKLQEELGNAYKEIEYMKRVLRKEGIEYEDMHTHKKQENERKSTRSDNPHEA
Technique: protein-binding microarray
Form: double-stranded DNA, one strand shown
Matrix: in vitro
Tested at: 0.8 µM
Notes: whole 60-bp probe, no competitor
Direction: higher = stronger binding
`CTATTAGGTTTGTGTCACGTGATACGTCCTTTTTTCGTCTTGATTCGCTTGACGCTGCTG` has a fluorescence intensity of 44000 a.u.
`CTAACGCATCTAGAACAGCTGAGATGAAAGAGGTTCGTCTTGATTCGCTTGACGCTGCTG` gave a fluorescence intensity of 549 a.u.
The fluorescence intensity of `TGTACGAAGCTATAACTGGTGGTTATAGTAGTTAGGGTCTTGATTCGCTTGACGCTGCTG` is reported as 508 a.u.
`CTAGTCGTCGTACGTGATGAGGGCAGGCTTGAATTCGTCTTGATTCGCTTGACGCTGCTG` gave a fluorescence intensity of 552 a.u.
`CTATGAACACCCATTCATCACGTGTAATTGGACTTCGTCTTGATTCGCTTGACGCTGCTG` gave a fluorescence intensity of 6430 a.u.
The fluorescence intensity of `CCTAACTACTATAATACCACCAGATAGCTTCGTACAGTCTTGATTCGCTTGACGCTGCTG` is reported as 519 a.u.
`CTACATGCCAATTCGCACGTGACTTGAAACTATTTCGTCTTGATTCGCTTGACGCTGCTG` gave a fluorescence intensity of 16800 a.u.
`GAACAAAAGGGGTGGCAACTGATGGAAAGACTTTAGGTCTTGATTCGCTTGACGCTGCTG` gave a fluorescence intensity of 526 a.u.
With `CTACTGCAACACAGACACGGGAAGGCCCAATCATTCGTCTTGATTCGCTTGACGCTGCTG` the fluorescence intensity was 528 a.u.
For `CTACATTGAATAAGTAACATCATGTGTCATTTTTTCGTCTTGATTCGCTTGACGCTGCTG`, the fluorescence intensity was 1340 a.u.
`GAACTAAACGGAAGGCACATGCATCGCATAATTTAGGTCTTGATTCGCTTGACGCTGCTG` has a fluorescence intensity of 696 a.u.
`GAACCTTCTAGATGCCATCAGTTGTTAATAGTATAGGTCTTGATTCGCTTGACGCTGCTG` has a fluorescence intensity of 525 a.u.
`GAATTTAATTCACGTGACCAGATAAGGGATTTATAGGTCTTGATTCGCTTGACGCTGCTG` gave a fluorescence intensity of 27300 a.u.
`CTAAAGTTAGTTTTTCTGCTGATATATATCTTTTTCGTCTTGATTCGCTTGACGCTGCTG` has a fluorescence intensity of 499 a.u.
`GAATTTGATTGGTCTCACGTTGGCTTGTATATTTAGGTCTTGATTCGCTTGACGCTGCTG` has a fluorescence intensity of 567 a.u.
For `CTAATATCAAATTGTCACCCGGTATAGATATACTTCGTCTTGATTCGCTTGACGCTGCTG`, the fluorescence intensity was 579 a.u.
With `CTAATGTGTTGATAGCAGGTGACGCGTCTGTAATTCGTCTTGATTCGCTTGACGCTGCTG` the fluorescence intensity was 1170 a.u.
With `GAAGTCTCTACTGGTGGTGGTGCTTCTTTGGAATAGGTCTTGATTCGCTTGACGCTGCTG` the fluorescence intensity was 512 a.u.
For `GAAGTGAAATTTCAGCTGACAGCGAGTTTCATGTAGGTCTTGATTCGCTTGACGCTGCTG`, the fluorescence intensity was 587 a.u.
`CCTAACTACTATATTAACGTGGGATAGCTTCGTACAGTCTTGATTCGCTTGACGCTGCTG` gave a fluorescence intensity of 529 a.u.
`CTACCACCAGAAAGTCACCTGCTCTCTTAATCATTCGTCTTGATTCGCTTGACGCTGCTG` gave a fluorescence intensity of 2670 a.u.
With `CTATAAATGTCGCATCATGACTCCCGACAATAATTCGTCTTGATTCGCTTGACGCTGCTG` the fluorescence intensity was 542 a.u.

Series 3
Target: Histone acetyltransferase KAT6A, winged helix 2, GST fusion (KAT6A, Homo sapiens, UniProt Q92794, residues 85-181)
Technique: protein binding microarray
Form: double-stranded DNA, one strand shown
Matrix: in vitro
Tested at: not given
Notes: 8-mer, flanks averaged, mean of 2 arrays, mostly near background
Relative to: not given
Direction: higher = stronger binding
Target sequence (chain): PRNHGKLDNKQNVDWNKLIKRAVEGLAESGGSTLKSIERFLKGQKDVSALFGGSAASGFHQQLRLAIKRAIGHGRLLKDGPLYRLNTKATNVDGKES
`GGGCGACA` gave an E-score of -0.0816.
With `CTATTGAG` the E-score was -0.0742.
The E-score of `CTAAGGCA` is reported as 0.0589.
With `CGGTTATC` the E-score was -0.135.
The E-score of `ATCCGAAC` is reported as -0.0043.
With `ACCGACTC` the E-score was -0.0719.
With `GATTGAAA` the E-score was -0.0838.
The E-score of `CATTGGAA` is reported as 0.0369.
For `GACGACTC`, the E-score was -0.171.
`TAGGACGA` gave an E-score of -0.204.
`GCCTACAC` has an E-score of -0.0244.
The E-score of `ATAGCCGG` is reported as 0.15.
`CATCGACG` has an E-score of 0.0342.
`ATTGGCAG` gave an E-score of -0.214.
With `AGTATGCG` the E-score was -0.0266.
`CCCCTTAA` has an E-score of -0.153.
`CTGGGATA` has an E-score of 0.106.
`CCGTAAAG` gave an E-score of -0.0616.
The E-score of `ATGTGAGA` is reported as -0.137.
For `AACACGAT`, the E-score was 0.0617.
`CACCAATG` has an E-score of -0.0462.
With `GGATAACA` the E-score was -0.175.
`TATACGGA` has an E-score of -0.139.
The E-score of `GACCAAAC` is reported as -0.0329.
The E-score of `CATAGTAC` is reported as -0.104.

Series 4
Target: CCNE2, cyclin fold, Cln2 fusion (human)
Technique: yeast growth competition, sequencing
Matrix: yeast
Notes: strong parent motif
Relative to: not given
Direction: higher = stronger binding
Parent: RBL1 docking peptide (human); GSAKRRLFGEDPP; partner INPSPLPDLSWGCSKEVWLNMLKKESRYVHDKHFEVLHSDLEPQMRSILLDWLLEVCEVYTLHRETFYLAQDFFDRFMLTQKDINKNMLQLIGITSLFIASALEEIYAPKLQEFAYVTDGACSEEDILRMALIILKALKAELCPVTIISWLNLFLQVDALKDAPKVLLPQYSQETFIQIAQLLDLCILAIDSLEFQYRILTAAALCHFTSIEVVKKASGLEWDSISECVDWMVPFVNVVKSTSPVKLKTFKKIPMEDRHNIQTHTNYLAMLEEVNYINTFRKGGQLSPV
For `GSAKNRLFGEDPP [R5N]`, “normalised enrichment score” read 0.466.
For `GSAKRRLFGETPP [D11T]`, “normalised enrichment score” read 4.26.
For `GSAKRRLFGQDPP [E10Q]`, “normalised enrichment score” read 3.14.
`GSAKRRLFGEDPH [P13H]` — result for “normalised enrichment score”: 4.61.
Under “normalised enrichment score”, `GSAGRRLFGEDPP [K4G]` is recorded as 0.00111.
Under “normalised enrichment score”, `GSAKRRLFGEDPE [P13E]` is recorded as 3.07.
`GSAKRRLFPEDPP [G9P]`: “normalised enrichment score” 4.67.
`GSAKRRLFGELPP [D11L]`: “normalised enrichment score” 3.29.
`GSAKRRLFGEDEP [P12E]`: “normalised enrichment score” 5.09.
`GSNKRRLFGEDPP [A3N]`: “normalised enrichment score” -0.554.

Series 5
Target: ABI1, truncated, D143A, DHFR fusion (Arabidopsis thaliana)
Technique: DHFR PCA, deep sequencing
Matrix: yeast
Notes: methotrexate growth selection, single substitutions
Together with: (+)-ABA 0 µM
Relative to: wild-type fitted maximum
Direction: higher = stronger binding
Parent: PYL1, truncated, DHFR fusion (Arabidopsis thaliana); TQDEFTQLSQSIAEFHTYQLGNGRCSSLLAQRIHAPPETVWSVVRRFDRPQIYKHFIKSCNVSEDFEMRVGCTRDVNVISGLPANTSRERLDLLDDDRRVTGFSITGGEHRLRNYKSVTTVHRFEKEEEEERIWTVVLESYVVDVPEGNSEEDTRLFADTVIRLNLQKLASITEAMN
For `D144I`, “relative binding score” read -15.7%.
For `E14W`, “relative binding score” read -0.305%.
For `Y53M`, “relative binding score” read -0.487%.
`M68F` — result for “relative binding score”: 4.39%.
For `A13P`, “relative binding score” read -7.7%.
For `S59I`, “relative binding score” read 3.64%.
`P50R`: “relative binding score” -0.259%.
Under “relative binding score”, `H110D` is recorded as 48.2%.
`D159V`: “relative binding score” -3.7%.
For `V44C`, “relative binding score” read -0.883%.
Under “relative binding score”, `N177G` is recorded as 31.3%.
`L166Q`: “relative binding score” 6.09%.
For `C72G`, “relative binding score” read 0.156%.
For `D144Q`, “relative binding score” read -4%.
For `D48G`, “relative binding score” read 1.82%.

For quick reference, copied from above (series 1):
`GACAGTATCGGTCTCGGGACGTGCTAG` has a log fluorescence of 0.857 z-score.
The log fluorescence of `GACGGTATCCGTCTCGGGACGTGCTAG` is reported as -0.102 z-score.
`CTCACTCTAATCTCACTCTGTGTGCTA` has a log fluorescence of 0.359 z-score.
`GACGGTCTCCTTCTCCTGAGGTGCTAG` gave a log fluorescence of 0.0782 z-score.
`GTAGATTTCAGTATCGATTAGTGCTAG` has a log fluorescence of 0.815 z-score.
`TTCGGTTTCCTTTTCCTTTAGTGCTAG` gave a log fluorescence of 8.11 z-score.
`TCATGAGTCCCTATCTCACTGTGCTAG` has a log fluorescence of -0.169 z-score.
`GACGGTCTCGACACTGGGGACGTGCTA` has a log fluorescence of -0.089 z-score.
With `GACGGACTGGGGAATCGGGACGTGCTA` the log fluorescence was -0.322 z-score.
With `TTAGGTCTCGGTATCGGTTGGTGCTAG` the log fluorescence was 3.55 z-score.
With `TCATGATTGGTTGAACAACTGTGCTAG` the log fluorescence was -0.378 z-score.
